Results gathered from unrelated publications.
Parts stem from different laboratories: compare values within a part only.

Set 1 — technique: Spec-seq; form: double-stranded DNA, one strand shown; medium: in vitro; tested at: not given; notes: whole probe, mean of replicates; baseline: not given; direction: lower = stronger binding; shared flanks, not repeated: GAGTCGTCTCGTCAGCAC … TCCGTAGAGCACTCAGGTC
Target: Transcription factor SOX-2, HMG box (Sox2, Mus musculus, UniProt P48432, residues 41-119)
UniProt P48432, sequence (41-119, looked up): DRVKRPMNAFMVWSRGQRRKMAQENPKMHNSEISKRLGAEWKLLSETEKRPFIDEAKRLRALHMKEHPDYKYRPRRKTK
| Sequence | relative binding energy [ln ratio] |
| --- | --- |
| TCAAGT | 0.789 |
| AGAAGT | 0.205 |
| GCTGGT | 0.915 |
| TTTTGT | -2.58 |
| CCCAGT | 0.651 |
| CTACGT | 1.01 |
| CATGCC | 0.572 |
| GATCGT | 1.05 |

Set 2 — technique: protein binding microarray; form: double-stranded DNA, one strand shown; medium: in vitro; tested at: not given; baseline: not given; direction: higher = stronger binding
Target: Histone acetyltransferase KAT6A, winged helix 1, GST fusion (KAT6A, Homo sapiens, UniProt Q92794, residues 1-85)
Notes: 8-mer, flanks averaged, mean of 2 arrays, mostly near background
Target sequence (chain): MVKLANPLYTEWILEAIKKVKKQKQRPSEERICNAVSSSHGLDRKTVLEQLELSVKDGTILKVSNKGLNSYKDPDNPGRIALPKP
| Sequence | E-score |
| --- | --- |
| ACCGAGGT | 0.0194 |
| CTAAAGAG | -0.148 |
| CATTTTTC | -0.123 |
| GTCTGTGA | -0.124 |
| TAACCCCA | -0.183 |
| CAACGCGA | 0.121 |
| CACCCACA | -0.144 |
| GCCCTCAC | -0.0363 |

Set 3 — technique: RNA Bind-n-Seq; form: RNA; medium: in vitro; tested at: 200 nM; notes: whole 134-nt RNA, ends assumed; with: 150 mM LiCl; baseline: input library; direction: higher = stronger binding; library: 7-deaza-guanosine replaces G
Target: Fragile X messenger ribonucleoprotein 1, C-terminal low-complexity region (Fmr1, Mus musculus, UniProt P35922)
| Sequence | log2 enrichment |
| --- | --- |
| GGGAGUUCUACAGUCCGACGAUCCACAGACAACACGCACCCACACAGACACAGAGGGAAGGGGUUGGGAAGGGGACAGGGUGCACAGCAGGGCGGGGUAGGACCCCAGCCCCUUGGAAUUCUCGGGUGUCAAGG | 0.566 |
| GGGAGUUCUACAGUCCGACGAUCAAGUCCUGUGCUACACAUCGUAUGUACCGAAUCGGUUUUUGGUUUGGAAAAAAAGGAAAGUAUUAUGUUACGCCGUUCGGAUCUGCACUUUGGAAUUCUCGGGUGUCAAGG | -2.77 |
| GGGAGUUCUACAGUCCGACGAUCCUGUGCUACACAUCGUAUGUACCGAAUCGGGGAAAAAAAGGGGAAAAAAAGGGGUUUGGGGAAAGUAUUAUGUUACGCCGUUCGGAUCUGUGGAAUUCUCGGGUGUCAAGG | -1.19 |
| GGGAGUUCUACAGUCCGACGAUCCCUGUGCUACACAUCGUAUGUACCGAAUCGGGCCCCCCGGGGCCCCCCGGCCCCCCGGGGAAAGUAUUAUGUUACGCCGUUCGGAUCUGCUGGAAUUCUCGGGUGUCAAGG | -2.93 |
| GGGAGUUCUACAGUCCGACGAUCAAGUCCUGUGCUACACAUCGUAUGUACCGAAUCGGGAAAGGGGAAAGGGAAAGGGGAAAGUAUUAUGUUACGCCGUUCGGAUCUGCACUUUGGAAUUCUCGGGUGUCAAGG | 0.381 |
| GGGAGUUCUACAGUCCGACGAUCACCAUGCAGGUGGGCAUCUUUGGGAAGUGGGGCAAGGGGGGGAUAGGGAGGGGGGUAACACUUUGGGAACAGGUGGUCUCAGGUCGUUUCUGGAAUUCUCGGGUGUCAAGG | 1.4 |
| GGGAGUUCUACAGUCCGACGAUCCAAGUCCUGUGCUACACAUCGUAUGUACCGAAUCGGUGGAAAAAAAGGAAAAAGGAAAGUAUUAUGUUACGCCGUUCGGAUCUGCACUUCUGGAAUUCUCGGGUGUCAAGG | -1.17 |
| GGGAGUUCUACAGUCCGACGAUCGCAGGAAGUAAAAACAAAUGGAAAUGCUUCGGAUAGUGGCAGGGGUGGGGGUUGCUAAGGAAAGGGUGGGAUGUGAGUGGGUAAAGAGUUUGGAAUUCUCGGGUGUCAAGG | 1.34 |

Further values, each from its own experiment
| Molecule | target | observed | form | tested at | measurement | result |
| --- | --- | --- | --- | --- | --- | --- |
| RMFKRVFNM | HLA class I histocompatibility antigen, C alpha chain, allele C*04:01 (Homo sapiens, UniProt P10321) | peptide-MHC binding | peptide | concentration not given | binding | inactive |

A few entries again (set 3):
| Sequence | log2 enrichment |
| --- | --- |
| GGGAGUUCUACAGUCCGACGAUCCUGUGCUACACAUCGUAUGUACCGAAUCGGGGAAAAAAAGGGGAAAAAAAGGGGUUUGGGGAAAGUAUUAUGUUACGCCGUUCGGAUCUGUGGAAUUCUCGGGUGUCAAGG | -1.19 |
| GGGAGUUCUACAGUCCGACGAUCCCUGUGCUACACAUCGUAUGUACCGAAUCGGGCCCCCCGGGGCCCCCCGGCCCCCCGGGGAAAGUAUUAUGUUACGCCGUUCGGAUCUGCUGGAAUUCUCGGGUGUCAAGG | -2.93 |
| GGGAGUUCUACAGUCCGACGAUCAAGUCCUGUGCUACACAUCGUAUGUACCGAAUCGGGAAAGGGGAAAGGGAAAGGGGAAAGUAUUAUGUUACGCCGUUCGGAUCUGCACUUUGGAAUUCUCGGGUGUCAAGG | 0.381 |
